Measured values collected from several papers.
Parts stem from different laboratories: compare values within a part only. “And” joins repeats or separate records; there may be more than shown. Substitutions count along the parent as printed.

Series 1
Target: tungstate, free oxyanion
Technique: microfluidic competitive inhibition
Medium: in vitro, cell-free expressed
Tested at: not given
Notes: derived from inhibition constants, unchanged parent 2230 nM
Reading: lower = stronger binding
Parent: PafA, mature enzyme, eGFP fusion (Elizabethkingia meningoseptica, UniProt Q9KJX5); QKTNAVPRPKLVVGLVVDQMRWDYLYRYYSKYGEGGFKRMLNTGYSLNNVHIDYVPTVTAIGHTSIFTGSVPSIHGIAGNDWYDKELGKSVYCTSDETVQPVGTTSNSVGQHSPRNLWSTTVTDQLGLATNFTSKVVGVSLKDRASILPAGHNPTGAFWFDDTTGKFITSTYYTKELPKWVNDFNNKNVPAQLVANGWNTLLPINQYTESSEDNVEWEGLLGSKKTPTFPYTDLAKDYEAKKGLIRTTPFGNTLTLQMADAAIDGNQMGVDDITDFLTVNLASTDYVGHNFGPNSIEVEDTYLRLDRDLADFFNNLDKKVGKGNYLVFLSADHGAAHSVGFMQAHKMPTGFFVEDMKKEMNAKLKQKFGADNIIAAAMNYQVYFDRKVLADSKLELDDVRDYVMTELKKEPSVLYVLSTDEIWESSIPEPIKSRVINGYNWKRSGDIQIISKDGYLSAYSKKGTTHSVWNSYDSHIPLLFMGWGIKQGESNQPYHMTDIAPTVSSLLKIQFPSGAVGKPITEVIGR
Variant | oxyanion analog dissociation constant [µM]
R8G | 1.7
D233V | 2.73
L254V | 2.37
N116V | 2.42
R39V | 2.19
P114V | 2.37
T419G | 1.27
R443V | 2.55

Series 2
Target: UDP-N-acetylglucosamine--peptide N-acetylglucosaminyltransferase 110 kDa subunit (OGT, Homo sapiens, UniProt O15294)
Chain of UniProt O15294 (whole entry, looked up): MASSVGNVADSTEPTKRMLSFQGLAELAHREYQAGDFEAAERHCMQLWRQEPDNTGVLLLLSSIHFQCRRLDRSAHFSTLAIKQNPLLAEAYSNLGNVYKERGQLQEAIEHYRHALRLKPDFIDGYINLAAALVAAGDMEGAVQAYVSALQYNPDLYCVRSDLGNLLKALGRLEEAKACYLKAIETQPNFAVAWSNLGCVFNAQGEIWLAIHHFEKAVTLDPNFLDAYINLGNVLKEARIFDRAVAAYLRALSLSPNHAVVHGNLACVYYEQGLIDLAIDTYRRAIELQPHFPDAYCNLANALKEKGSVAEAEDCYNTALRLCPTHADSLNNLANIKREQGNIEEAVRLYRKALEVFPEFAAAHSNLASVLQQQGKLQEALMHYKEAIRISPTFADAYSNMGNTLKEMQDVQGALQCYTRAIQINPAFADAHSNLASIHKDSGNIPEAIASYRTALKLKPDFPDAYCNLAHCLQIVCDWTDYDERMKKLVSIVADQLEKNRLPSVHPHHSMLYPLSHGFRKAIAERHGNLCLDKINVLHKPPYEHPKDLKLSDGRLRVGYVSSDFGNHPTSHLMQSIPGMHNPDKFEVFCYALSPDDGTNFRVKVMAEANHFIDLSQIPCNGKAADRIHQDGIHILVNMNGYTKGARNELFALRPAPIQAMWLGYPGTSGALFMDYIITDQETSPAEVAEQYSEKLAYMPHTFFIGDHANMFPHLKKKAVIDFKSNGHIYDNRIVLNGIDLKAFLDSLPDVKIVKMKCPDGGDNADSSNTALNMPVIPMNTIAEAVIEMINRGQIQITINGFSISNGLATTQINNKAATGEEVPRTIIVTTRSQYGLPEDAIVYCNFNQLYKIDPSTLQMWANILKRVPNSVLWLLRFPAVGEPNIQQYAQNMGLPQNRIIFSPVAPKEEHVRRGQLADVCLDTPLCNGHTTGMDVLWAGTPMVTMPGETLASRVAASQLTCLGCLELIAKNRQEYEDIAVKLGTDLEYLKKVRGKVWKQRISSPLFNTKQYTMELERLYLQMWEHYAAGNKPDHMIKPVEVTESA
Observed: phage display binding
Technique: phage display panning NGS
Form: peptide
Relative to: OGT-panned over input library
Sequence | log2 fold enrichment
YLIEPPKRHHHYHN | 3.24
DYKPKYQITAAEAG | 2.85
KQVAVSVPPKYQIYV | 2.51
HYGQMIHHFPQGFHD | 2.93
DTYEPVYQITPRADT | 2.09
VLIFPPQYQMFISSY | 3.4
VPYKHWHVHRGDDHF | 2.67
TMKHRPATAWGIHHH | 4.13

Series 3
Target: CCNB3, cyclin fold, Cln2 fusion (human)
Technique: yeast growth competition, sequencing
Medium: yeast
Notes: weak parent motif
Relative to: not given
Reading: higher = stronger binding
Parent: viral docking peptide; KKVKRRLFETREL; partner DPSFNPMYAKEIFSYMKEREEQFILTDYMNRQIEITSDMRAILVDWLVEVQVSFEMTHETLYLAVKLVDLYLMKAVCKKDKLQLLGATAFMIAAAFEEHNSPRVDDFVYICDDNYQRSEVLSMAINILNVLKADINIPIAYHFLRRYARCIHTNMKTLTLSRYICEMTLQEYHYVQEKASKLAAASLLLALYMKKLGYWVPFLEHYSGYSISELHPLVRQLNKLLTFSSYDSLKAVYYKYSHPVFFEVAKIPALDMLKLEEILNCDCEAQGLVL
Variant | normalised enrichment score
E12A | 0.362
R5A L7A | 0.29
R6A | 0.408
K1A | 1.05

Single results of other studies
Structure (SMILES) | system | setting | quantity | result
CN(N=O)C(=O)N[C@@H]1[C@@H](O)[C@H](O)[C@@H](CO)O[C@@H]1O | mice, STZ diabetic neuropathy | dose not given, 3 days after STZ | body weight | 35.2 g and 35.6 g and 38.1 g and 31.3 g and 31 g

A few entries again (series 1):
Variant | oxyanion analog dissociation constant [µM]
T419G | 1.27
P114V | 2.37
L254V | 2.37
